{"data": "Results gathered from unrelated publications", "note": "Each numbered part is a random draw from the data of one study; scales do not carry over between parts. Changes are numbered by the printed parent chain."}
{"data": "Study 1", "target": "Histone acetyltransferase KAT6A, both winged helices, GST fusion (KAT6A, Homo sapiens, UniProt Q92794, residues 1-181)", "technique": "protein binding microarray", "molecule type": "double-stranded DNA, one strand shown", "matrix": "in vitro", "concentration": "not given", "notes": "8-mer, flanks averaged, mean of 2 arrays, mostly near background", "relative to": "not given", "direction": "higher = stronger binding", "Construct (chain)": "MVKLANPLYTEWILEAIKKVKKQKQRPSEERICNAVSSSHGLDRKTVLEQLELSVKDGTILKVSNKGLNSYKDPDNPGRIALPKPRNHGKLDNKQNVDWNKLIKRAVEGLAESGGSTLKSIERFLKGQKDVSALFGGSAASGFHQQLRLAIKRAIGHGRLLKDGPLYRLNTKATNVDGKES"}
{"Oligonucleotide": "AAGATAGT", "E-score": -0.123}
{"Oligonucleotide": "ATCACAGA", "E-score": -0.139}
{"Oligonucleotide": "AGACCGAC", "E-score": 0.145}
{"Oligonucleotide": "ACGGATGA", "E-score": 0.164}
{"Oligonucleotide": "CTCATTGA", "E-score": 0.014}
{"Oligonucleotide": "AAGTGGCA", "E-score": -0.174}
{"Oligonucleotide": "ATGCAATG", "E-score": -0.176}
{"Oligonucleotide": "CGTTGGAC", "E-score": -0.0494}
{"Oligonucleotide": "AGCCGATC", "E-score": 0.163}
{"data": "Study 2", "target": "Sal-like protein 4, full length isoform A (SALL4, Homo sapiens, UniProt Q9UJQ4, residues 1-1053)", "technique": "universal PBM", "molecule type": "double-stranded DNA, one strand shown", "matrix": "in vitro", "concentration": "600 nM", "notes": "8-mer, flanks averaged, mean of replicates", "direction": "higher = stronger binding", "chain of UniProt Q9UJQ4 (whole entry, looked up)": "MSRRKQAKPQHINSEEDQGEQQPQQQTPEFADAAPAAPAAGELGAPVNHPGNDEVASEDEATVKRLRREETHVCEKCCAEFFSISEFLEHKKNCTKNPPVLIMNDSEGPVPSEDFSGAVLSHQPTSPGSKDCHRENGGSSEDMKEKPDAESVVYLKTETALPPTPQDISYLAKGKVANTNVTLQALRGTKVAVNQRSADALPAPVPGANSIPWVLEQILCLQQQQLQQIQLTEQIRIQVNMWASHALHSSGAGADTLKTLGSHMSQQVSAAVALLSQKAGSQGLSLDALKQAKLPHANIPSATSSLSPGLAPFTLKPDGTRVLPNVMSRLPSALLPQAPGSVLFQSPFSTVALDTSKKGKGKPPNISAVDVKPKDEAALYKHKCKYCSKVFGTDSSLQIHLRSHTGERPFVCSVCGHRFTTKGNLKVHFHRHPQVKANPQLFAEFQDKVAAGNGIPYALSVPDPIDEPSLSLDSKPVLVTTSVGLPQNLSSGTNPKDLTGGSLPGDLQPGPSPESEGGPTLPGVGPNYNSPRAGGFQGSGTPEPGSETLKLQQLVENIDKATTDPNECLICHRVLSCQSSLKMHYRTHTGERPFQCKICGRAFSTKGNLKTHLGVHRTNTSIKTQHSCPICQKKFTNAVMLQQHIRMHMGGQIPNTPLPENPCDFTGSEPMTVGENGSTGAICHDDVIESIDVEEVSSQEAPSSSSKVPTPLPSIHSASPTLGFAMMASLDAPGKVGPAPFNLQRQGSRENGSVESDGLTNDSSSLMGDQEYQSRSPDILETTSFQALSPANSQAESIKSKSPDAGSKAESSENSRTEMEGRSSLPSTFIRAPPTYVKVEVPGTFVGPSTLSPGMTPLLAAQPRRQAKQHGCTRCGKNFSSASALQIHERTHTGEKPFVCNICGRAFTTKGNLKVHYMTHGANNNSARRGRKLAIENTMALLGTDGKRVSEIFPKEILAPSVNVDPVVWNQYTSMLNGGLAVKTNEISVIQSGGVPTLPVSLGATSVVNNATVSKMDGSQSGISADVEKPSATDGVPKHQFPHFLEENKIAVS"}
{"Oligonucleotide": "GAATACAC", "E-score": 0.197}
{"Oligonucleotide": "GCCCGAAA", "E-score": -0.0699}
{"Oligonucleotide": "ACAACCAG", "E-score": 0.0173}
{"Oligonucleotide": "CCTAGTAC", "E-score": -0.00965}
{"Oligonucleotide": "CACGCCCC", "E-score": -0.357}
{"Oligonucleotide": "GGGTACTA", "E-score": -0.0324}
{"Oligonucleotide": "ACCCGTAA", "E-score": -0.134}
{"Oligonucleotide": "TGTTATAA", "E-score": 0.367}
{"Oligonucleotide": "CTCAGCGC", "E-score": -0.201}
{"Oligonucleotide": "AGTTTGAC", "E-score": 0.0121}
{"data": "Study 3", "target": "CCND2, cyclin fold, Cln2 fusion (human)", "technique": "yeast growth competition, sequencing", "matrix": "yeast", "notes": "weak parent motif", "relative to": "not given", "direction": "higher = stronger binding", "starting sequence": "MICAL3 docking peptide (human); LQLRRQLSFSEDS; partner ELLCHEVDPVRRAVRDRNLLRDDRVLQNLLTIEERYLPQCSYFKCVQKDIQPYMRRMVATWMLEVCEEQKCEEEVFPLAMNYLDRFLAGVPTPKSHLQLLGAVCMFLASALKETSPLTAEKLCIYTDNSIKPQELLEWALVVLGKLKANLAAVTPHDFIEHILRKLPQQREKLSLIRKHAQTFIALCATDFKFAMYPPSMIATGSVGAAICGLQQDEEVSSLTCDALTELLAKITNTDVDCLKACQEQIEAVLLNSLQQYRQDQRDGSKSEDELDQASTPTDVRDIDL"}
{"Variant": "LQSRRQLSFSEDS [L3S]", "normalised enrichment score": 0.445}
{"Variant": "LQLRRQLQFSEDS [S8Q]", "normalised enrichment score": 0.276}
{"Variant": "LQLRRQLSFSEPS [D12P]", "normalised enrichment score": 0.327}
{"Variant": "LQWRRQLSFSEDS [L3W]", "normalised enrichment score": -0.226}
{"Variant": "LQLRRQLSYSEDS [F9Y]", "normalised enrichment score": -0.0153}
{"Variant": "LQLRFQLSFSEDS [R5F]", "normalised enrichment score": -0.222}
{"data": "Single results of other studies"}
{"Molecule": "PhoQ, residues 284 288 289 292 302 303 GLASVI", "target": "PhoP, residues 12 14 15 18 19 SEGLL (Escherichia coli, UniProt P23836)", "assay": "Sort-seq, item: YFP reporter", "system": "E. coli", "conditions": "PhoQ-PhoP variant library, added: 10 µM Mg2+", "scale": "relative to: high Mg2+ state, higher = stronger signaling", "endpoint": "fold induction", "value": 15.5}
{"note": "Repeated from above (study 2):"}
{"Oligonucleotide": "CACGCCCC", "E-score": -0.357}
{"Oligonucleotide": "GGGTACTA", "E-score": -0.0324}
